Experimental data of several laboratories.
Every numbered part comes from another study and shows a few of its results, in no order. Values joined by “and” are separate records of one study, mostly repeats; a detail may differ.
Sequence of UniProt P10721 (whole entry, unmodified, looked up): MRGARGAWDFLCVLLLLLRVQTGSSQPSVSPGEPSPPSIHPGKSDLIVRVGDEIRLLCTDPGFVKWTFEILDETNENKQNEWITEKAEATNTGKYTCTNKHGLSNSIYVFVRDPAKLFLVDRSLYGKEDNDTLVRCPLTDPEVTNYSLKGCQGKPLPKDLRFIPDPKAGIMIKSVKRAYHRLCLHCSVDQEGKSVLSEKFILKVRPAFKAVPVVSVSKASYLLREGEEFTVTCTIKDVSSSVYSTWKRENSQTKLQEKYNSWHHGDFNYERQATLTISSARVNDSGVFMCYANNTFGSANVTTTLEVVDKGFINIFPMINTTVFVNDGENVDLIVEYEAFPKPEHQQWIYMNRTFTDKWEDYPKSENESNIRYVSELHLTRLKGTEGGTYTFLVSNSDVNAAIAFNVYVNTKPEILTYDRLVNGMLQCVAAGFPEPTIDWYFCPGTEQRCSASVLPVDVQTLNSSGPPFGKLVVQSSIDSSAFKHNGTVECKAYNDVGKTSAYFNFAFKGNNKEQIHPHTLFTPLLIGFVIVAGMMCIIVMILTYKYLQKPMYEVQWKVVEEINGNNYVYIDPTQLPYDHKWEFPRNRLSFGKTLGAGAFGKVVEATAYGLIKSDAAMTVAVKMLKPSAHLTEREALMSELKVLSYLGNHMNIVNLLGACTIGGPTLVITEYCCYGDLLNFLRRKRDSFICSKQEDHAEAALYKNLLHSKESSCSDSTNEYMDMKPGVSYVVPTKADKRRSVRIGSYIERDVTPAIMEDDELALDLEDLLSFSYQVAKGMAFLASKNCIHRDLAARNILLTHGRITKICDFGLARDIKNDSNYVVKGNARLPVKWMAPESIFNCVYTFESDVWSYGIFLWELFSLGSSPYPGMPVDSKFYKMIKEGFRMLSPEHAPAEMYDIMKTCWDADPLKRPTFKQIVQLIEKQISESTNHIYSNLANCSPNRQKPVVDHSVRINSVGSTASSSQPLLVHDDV
Sequence of UniProt Q59H18 (whole entry, looked up): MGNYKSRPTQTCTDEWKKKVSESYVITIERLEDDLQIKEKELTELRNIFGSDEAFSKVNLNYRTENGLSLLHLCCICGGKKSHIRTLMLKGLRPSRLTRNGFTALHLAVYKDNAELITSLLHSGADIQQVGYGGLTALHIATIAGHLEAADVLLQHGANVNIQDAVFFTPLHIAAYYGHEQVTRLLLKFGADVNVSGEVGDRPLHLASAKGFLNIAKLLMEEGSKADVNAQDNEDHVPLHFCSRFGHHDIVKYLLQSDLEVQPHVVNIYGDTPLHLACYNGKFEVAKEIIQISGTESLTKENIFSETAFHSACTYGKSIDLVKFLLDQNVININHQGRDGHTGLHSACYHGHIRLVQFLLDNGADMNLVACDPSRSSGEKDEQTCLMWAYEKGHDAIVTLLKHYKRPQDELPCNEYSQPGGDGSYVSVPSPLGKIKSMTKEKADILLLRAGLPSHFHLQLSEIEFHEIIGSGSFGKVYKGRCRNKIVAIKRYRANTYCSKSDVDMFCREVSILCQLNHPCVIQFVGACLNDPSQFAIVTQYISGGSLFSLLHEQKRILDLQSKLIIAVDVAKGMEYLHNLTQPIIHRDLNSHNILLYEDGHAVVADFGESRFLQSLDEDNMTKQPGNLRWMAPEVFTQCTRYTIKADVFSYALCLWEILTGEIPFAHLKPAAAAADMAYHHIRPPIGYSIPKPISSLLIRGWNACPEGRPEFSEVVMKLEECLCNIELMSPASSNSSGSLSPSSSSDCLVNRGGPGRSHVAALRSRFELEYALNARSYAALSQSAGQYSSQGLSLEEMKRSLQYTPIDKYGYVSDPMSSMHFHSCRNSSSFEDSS
Sequence of UniProt Q9UQM7 (whole entry, looked up): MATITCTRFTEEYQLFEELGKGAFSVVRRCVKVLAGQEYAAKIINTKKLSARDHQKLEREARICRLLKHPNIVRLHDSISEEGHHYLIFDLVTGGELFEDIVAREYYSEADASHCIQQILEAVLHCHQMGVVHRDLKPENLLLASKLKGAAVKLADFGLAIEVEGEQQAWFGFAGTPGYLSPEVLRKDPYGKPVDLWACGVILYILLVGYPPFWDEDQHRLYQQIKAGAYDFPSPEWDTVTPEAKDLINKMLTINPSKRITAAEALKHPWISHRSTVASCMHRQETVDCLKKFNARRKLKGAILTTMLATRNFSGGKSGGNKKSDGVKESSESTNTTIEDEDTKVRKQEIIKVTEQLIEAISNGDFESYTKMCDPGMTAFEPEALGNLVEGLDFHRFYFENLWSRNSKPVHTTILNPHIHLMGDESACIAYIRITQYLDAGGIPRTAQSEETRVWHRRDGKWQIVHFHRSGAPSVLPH

Study 1 — effect on: enzyme activity; action: inhibitor; tested at: 77 µM; baseline: untreated
Target: DNA polymerase theta, ATPase domain (POLQ, Homo sapiens, UniProt O75417)
Sequence of UniProt O75417 (whole entry, unmodified, looked up): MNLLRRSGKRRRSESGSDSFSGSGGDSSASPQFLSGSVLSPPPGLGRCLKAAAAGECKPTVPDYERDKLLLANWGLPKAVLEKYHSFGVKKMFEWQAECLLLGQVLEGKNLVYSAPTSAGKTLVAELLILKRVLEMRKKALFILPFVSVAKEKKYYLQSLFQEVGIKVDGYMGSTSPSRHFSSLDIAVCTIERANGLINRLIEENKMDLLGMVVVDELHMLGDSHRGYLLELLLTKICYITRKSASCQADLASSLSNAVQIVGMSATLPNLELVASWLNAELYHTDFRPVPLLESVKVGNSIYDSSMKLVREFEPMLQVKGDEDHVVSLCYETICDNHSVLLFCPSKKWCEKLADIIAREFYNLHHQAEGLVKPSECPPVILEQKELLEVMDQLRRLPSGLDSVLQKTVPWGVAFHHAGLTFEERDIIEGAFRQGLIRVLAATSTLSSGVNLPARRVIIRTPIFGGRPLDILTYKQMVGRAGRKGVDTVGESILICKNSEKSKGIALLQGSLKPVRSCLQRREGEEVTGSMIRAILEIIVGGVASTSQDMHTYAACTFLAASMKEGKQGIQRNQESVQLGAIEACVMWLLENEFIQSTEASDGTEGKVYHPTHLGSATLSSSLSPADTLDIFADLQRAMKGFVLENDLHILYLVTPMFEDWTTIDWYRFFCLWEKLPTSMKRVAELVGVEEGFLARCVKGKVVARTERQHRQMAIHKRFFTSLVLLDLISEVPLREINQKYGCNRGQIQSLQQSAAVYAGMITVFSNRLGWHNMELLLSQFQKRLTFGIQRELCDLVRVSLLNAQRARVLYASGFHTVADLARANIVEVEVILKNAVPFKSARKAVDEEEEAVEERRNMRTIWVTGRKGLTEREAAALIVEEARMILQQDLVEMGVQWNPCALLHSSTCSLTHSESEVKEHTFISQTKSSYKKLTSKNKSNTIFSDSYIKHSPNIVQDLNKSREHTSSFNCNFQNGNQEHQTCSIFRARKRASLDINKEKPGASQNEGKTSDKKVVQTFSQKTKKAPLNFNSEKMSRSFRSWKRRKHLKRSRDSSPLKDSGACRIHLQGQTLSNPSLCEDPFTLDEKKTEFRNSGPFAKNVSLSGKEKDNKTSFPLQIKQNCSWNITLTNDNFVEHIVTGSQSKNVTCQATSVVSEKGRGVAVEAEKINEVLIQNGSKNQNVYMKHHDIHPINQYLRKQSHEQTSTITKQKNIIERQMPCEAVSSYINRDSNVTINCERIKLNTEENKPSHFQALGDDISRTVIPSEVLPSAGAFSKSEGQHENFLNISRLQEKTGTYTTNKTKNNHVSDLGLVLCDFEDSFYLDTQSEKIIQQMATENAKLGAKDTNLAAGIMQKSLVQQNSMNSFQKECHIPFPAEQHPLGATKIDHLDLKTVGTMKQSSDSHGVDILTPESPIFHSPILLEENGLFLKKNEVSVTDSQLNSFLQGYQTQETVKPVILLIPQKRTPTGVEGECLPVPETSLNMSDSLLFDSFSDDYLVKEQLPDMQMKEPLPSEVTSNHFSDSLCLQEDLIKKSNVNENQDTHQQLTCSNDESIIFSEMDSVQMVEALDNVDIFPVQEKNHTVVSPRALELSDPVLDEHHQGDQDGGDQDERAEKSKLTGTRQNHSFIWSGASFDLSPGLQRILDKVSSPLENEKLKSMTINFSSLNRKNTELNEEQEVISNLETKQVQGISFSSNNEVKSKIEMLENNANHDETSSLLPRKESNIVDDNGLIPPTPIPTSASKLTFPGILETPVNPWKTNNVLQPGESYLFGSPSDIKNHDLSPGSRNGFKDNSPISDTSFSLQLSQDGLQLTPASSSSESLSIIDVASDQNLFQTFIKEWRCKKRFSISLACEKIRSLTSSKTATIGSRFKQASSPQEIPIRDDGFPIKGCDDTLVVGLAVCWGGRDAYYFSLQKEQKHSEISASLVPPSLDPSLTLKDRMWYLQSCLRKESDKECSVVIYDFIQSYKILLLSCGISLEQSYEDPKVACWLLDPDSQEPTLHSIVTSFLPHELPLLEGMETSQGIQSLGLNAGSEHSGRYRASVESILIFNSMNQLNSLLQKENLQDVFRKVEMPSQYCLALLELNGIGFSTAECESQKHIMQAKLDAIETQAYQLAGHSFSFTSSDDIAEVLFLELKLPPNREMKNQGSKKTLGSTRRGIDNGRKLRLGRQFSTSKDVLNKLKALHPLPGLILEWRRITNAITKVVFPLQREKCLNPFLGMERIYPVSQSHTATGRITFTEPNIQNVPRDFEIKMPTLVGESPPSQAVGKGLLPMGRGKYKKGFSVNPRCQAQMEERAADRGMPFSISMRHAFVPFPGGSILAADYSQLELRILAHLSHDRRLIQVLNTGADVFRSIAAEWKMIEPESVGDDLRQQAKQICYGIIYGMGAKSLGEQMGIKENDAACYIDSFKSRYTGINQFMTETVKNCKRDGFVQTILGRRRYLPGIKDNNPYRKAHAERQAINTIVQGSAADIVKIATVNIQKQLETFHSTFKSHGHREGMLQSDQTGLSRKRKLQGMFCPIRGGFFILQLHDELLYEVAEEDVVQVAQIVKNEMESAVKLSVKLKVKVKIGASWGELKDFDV
Structure (SMILES)	remaining activity
C[C@@H]1CN(c2c(F)c(N)c3c(=O)c(C(=O)O)cn(C4CC4)c3c2F)C[C@H](C)N1	99.7%
C#C[C@]1(O)CC[C@H]2[C@@H]3CCC4=CC(=O)CC[C@@H]4[C@H]3CC[C@@]21CC	103%
Nc1ncnc2c1c(-c1ccc(Oc3ccccc3)cc1)cn2C1CCCC1	101%

Study 2 — organism: Leishmania donovani; strain: DD8
SMILES: c1ccc(Oc2ccc(Nc3c4c(nc5ccccc35)CCC4)cc2)cc1
test	test system	setting	inhibition
parasite viability, resazurin	promastigotes	0.0033 µM	-1% and -2%
parasite killing	promastigotes	1.66 µM, 96 h	84% and 81% and 80%
parasite killing	intracellular amastigotes	2 µM, 48 h	37% and 53%
parasite viability, resazurin	promastigotes	0.0066 µM	-1% and -5% and -4%
parasite killing	promastigotes	0.66 µM, 72 h	51% and 52%

Study 3 — organism: Sarcocystis neurona; effect on: parasite growth; tested at: concentration not given; notes: first screen; baseline: untreated
Compound	log2 fold change
C[N+]1(C)CCCC(OC(=O)C(O)(c2ccccc2)c2ccccc2)C1.[Br-] (stereo not shown)	0.19
NC(=O)OCC(COC(N)=O)c1ccccc1.O	-0.06
Nc1nc(Cl)nc2c1ncn2[C@@H]1O[C@H](CO)[C@@H](O)[C@H]1O	0.04
Cc1sc(N)c(C(=O)c2cccc(C(F)(F)F)c2)c1C	0.27
COc1ccccc1N1CCN(CCCNc2cc(=O)n(C)c(=O)n2C)CC1.Cl	0.0135

Study 4 — effect on: binding; tested at: 1 µM
Structure (SMILES): COc1ccc2[nH]c3c4[nH]c5ccc(OC)cc5c4c4c(c3c2c1)C(=O)NC4=O
target	test	remaining binding
COQ8B (Homo sapiens, UniProt Q96D53)	–	75%
NLK (Homo sapiens, UniProt Q9UBE8)	competition with immobilised ligand	52%
EPHA6 (Homo sapiens, UniProt Q9UF33)	competition with immobilised ligand	88%

Study 5 — method: competition with immobilised ligand; tested at: 1 µM
Structure (SMILES): O=C(N[C@H]1CCCCC/C=C\C2C[C@@]2(C(=O)O)NC(=O)[C@@H]2C[C@@H](Oc3ccncc3)CN2C1=O)OC1CCCC1 (stereo partly shown)
target	test	remaining binding [%]
TAOK1 (Homo sapiens, UniProt Q7L7X3)	binding	100
EPHA5 (Homo sapiens, UniProt P54756)	cell-free assay	100
KIT (Homo sapiens, UniProt P10721, T670I/V559D)	binding	100
Tyrosine-protein kinase ABL1, phosphorylated (ABL1, Homo sapiens, UniProt P00519, T315I)	binding	84
BLK (Homo sapiens, UniProt P51451)	binding	63
Ribosomal protein S6 kinase alpha-2, C-terminal kinase domain (RPS6KA2, Homo sapiens, UniProt Q15349)	binding	75
FER (Homo sapiens, UniProt P16591)	binding	100
STK39 (Homo sapiens, UniProt Q9UEW8)	binding	100
MAPK12 (Homo sapiens, UniProt P53778)	binding	100
MAP3K12 (Homo sapiens, UniProt Q12852)	binding	100
CDK15 (Homo sapiens, UniProt Q96Q40)	binding	100
PTK2B (Homo sapiens, UniProt Q14289)	binding	100
CDK9 (Homo sapiens, UniProt P50750)	binding	91
FLT3 (Homo sapiens, UniProt P36888, R834Q)	binding	93
CDC42BPB (Homo sapiens, UniProt Q9Y5S2)	binding	100
Cyclin-dependent kinase 4, with cyclin D3 (CDK4, Homo sapiens, UniProt P11802)	binding	89
MAP3K19 (Homo sapiens, UniProt Q56UN5)	binding	93
CAMK2A (Homo sapiens, UniProt Q9UQM7)	cell-free assay	95
EGFR (Homo sapiens, UniProt P00533, L861Q)	cell-free assay	100
TNNI3K (Homo sapiens, UniProt Q59H18)	binding	100
KIT (Homo sapiens, UniProt P10721, A829P)	binding	98

Study 6 — host: human; sample: microsomes or S9; tested at: 2 µM; time: 0.5 h
SMILES	remaining compound [%]
O=C(NCC(F)(F)F)c1nnn(-c2ccc(NS(=O)(=O)c3cccnc3)cc2)n1	86.1
COn1c(Br)c(Br)c(Br)c1C(=O)Nc1ccc(Br)cc1	23.8
COc1cc(-c2coc3cc(O)c(OC)c(O)c3c2=O)cc(O)c1OC	66.4
COC(=O)[C@@H](O)c1c(C)nc2[nH]c3c(c2c1-c1ccc(Cl)cc1)CCCC3	55
CC(C)N1N=C(c2nc(-c3ccsc3)no2)CCC1=O	27.2

Study 7 — method: phase 2a trial; host: idiopathic pulmonary fibrosis patients
Structure (SMILES): CC(C)n1cnc(-c2ccc(F)cc2)c1-c1ncc(C(=O)Nc2ccc(N3CCN(C)CC3)cc2)[nH]1
setting	patients with decreased appetite
60 mg once daily, adverse event grade 2	0%
dose not given, adverse event grade 5, all dose arms pooled	0%
30 mg once daily, adverse event grade 1	0%
dose not given, adverse event grade 2, all dose arms pooled	0%

Repeated from above (study 3):
Compound	log2 fold change
C[N+]1(C)CCCC(OC(=O)C(O)(c2ccccc2)c2ccccc2)C1.[Br-] (stereo not shown)	0.19
NC(=O)OCC(COC(N)=O)c1ccccc1.O	-0.06
Nc1nc(Cl)nc2c1ncn2[C@@H]1O[C@H](CO)[C@@H](O)[C@H]1O	0.04
Cc1sc(N)c(C(=O)c2cccc(C(F)(F)F)c2)c1C	0.27
COc1ccccc1N1CCN(CCCNc2cc(=O)n(C)c(=O)n2C)CC1.Cl	0.0135
